Results collected from several papers.
Each line is one published result; not all experiments were run side by side. Numbers after ± are the reported error.
GBA1 R534H: Lysosomal acid glucosylceramidase (GBA1, Homo sapiens, UniProt P04062, R534H)
Chain of UniProt P04062 (whole entry, unmodified, looked up): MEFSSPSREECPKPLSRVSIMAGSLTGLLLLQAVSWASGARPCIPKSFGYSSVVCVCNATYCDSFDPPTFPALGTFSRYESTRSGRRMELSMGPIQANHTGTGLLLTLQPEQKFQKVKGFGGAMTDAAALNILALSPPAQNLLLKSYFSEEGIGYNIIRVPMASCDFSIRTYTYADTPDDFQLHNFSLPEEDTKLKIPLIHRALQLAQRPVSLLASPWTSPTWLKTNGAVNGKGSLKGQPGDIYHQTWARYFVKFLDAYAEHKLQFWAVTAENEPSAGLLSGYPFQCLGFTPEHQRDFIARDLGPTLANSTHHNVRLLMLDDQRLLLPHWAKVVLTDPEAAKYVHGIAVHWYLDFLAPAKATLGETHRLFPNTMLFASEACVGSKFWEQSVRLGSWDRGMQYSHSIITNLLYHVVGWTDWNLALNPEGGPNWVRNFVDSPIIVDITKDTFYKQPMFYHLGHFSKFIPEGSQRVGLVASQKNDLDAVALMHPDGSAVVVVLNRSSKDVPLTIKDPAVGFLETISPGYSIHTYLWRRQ

Structure (SMILES)	tested on	test	system	setting	scale	endpoint	result
Nc1ncc(-c2cc(-c3cnn(CC(F)(F)F)c3)ncc2F)nc1C(=O)NC1CNCC(F)C1 (stereo not shown)	PAK4	KINOMEscan	–	1 µM	baseline: DMSO control	remaining binding	75%
Cn1ccc2cc(-n3c(=O)[nH]c4sc5c(c4c3=O)CCCC5)ccc21	rat P2Y receptor nonselective	radioligand binding	–	10 µM	–	inhibition	20%
CC1(C)C[N+]2=Cc3ccc4[n]3[Au-]23[n]2c(ccc2-c2nc5ccccc5nc2-4)C=[N+]3C1.F[P-](F)(F)(F)(F)F	human ACTN3 291-bp linear dsDNA	high-resolution melt	–	50.5 µM	–	melting temperature	86.8 °C
C=CC(=O)Nc1cccc(Cn2ncc3cnc(Nc4cnn(CCOC)c4)nc32)c1	human PRKR	KINOMEscan	–	100 nM	baseline: control	binding	99%
CC1CCC2C(C)(C)C(O)CCC2(C)C12Cc1c(O)cc(CO)c(C=O)c1O2 (stereo not shown)	StaI (Stachybotrys chartarum)	substrate	–	30 min, pH 7.0, 45 °C	–	Vmax	12.3 nmol/min/mg
CC[C@H]1OC(=O)[C@H](C)[C@@H](O)[C@H](C)[C@@H](O[C@@H]2O[C@H](C)C[C@H](N(C)C)[C@H]2OC(C)=O)[C@](C)(OC)C[C@@H](C)C(=O)[C@H](C)[C@@H](O)[C@]1(C)O	Escherichia coli ribosome	in vitro transcription-translation, inhibitor	–	–	–	IC50	7.1 µM
OC[C@H]1[C@@H](O)[C@H](O)[C@@H](O)CN1CCCCCOCCC12CC3CC(CC(C3)C1)C2	GBA1 R534H	inhibitor, 4MU-β-D-glucopyranoside	–	together with: 4MU-β-D-glucopyranoside	–	IC50	2 µM
Cc1ccc(C(=O)c2c(NC(=O)c3ccncc3)sc3c2CCCC3)cc1	Trypanosoma cruzi	reporter mRNA translation, inhibitor, refers to: capped polyadenylated Renilla luciferase mRNA	cell-free extract	concentration not given	baseline: control RNA	relative translation	106%
CC[C@H]1OC(=O)[C@H](C)[C@@H](OC(=O)Cc2ccc(OC)cc2)[C@H](C)[C@@H](O[C@@H]2O[C@H](C)C[C@H](N(C)C)[C@H]2O)[C@](C)(OC)C[C@@H](C)C(=O)[C@H](C)[C@@H](O)[C@]1(C)O	Escherichia coli ribosome	in vitro transcription-translation, inhibitor	–	–	–	IC50	0.23 µM
CCCCCCCCCCCCCCCCOP(=O)([O-])OCC[N+](C)(C)C	Trypanosoma cruzi	reporter mRNA translation, inhibitor, refers to: capped polyadenylated Renilla luciferase mRNA	cell-free extract	concentration not given	baseline: control RNA	relative translation	127%
Fc1ccc(Nc2nc(NC3CCCCC3)c3ccccc3n2)cc1F	β2AR/β1AR TM2 chimera	β-arrestin2 recruitment, antagonist, BRET	–	–	baseline: isoprenaline maximal response	maximal inhibition	0.8%
NCCOc1cc(NC(=O)c2cc(Cl)cc(C(=O)Nc3cc(OCCN)c4ccccc4n3)n2)nc2ccccc12	c-kit1 G-quadruplex DNA	FRET melting	–	1 µM, pH 7.4, together with: 60 mM potassium	–	ΔTm	33.3 ± 0.9 K
CCCCCOCCCCCN1C[C@H](O)[C@@H](O)[C@H](O)[C@@H]1CO	GBA1 R534H	inhibitor, 4MU-β-D-glucopyranoside	–	together with: 4MU-β-D-glucopyranoside	–	IC50	100 µM
CN1CCCNC(=O)c2cccc(c2)C(=O)NCCCN(C)CCCNc2cccc3c2C(=O)c2cccc(c2C3=O)NCCC1	telomeric G-quadruplex DNA	DNA thermal stabilisation, CD melting	–	concentration not given, pH 7.4, together with: 100 mM KCl	–	ΔTm	8.8 ± 0.6 °C
C=CC(=O)N1[C@@H](c2ccc3c(c2)OCO3)c2[nH]c3ccccc3c2C[C@H]1C(=O)N1CCN(C)CC1	human cyclin E1 wild type-3xFLAG:CDK2	co-IP with TMT proteomics, refers to: SAMHD1	–	concentration not given, Q9Y3Z3	baseline: wild type DMSO	relative co-enrichment	85%
C1=NCCCN=Cc2ccc([nH]2)-c2nc3ccccc3nc2-c2ccc1[nH]2	human ACTN3 291-bp linear dsDNA	high-resolution melt	–	212 nM	–	melting temperature	83 °C

For quick reference, copied from above:
Structure (SMILES)	tested on	test	system	setting	scale	endpoint	result
CCCCCCCCCCCCCCCCOP(=O)([O-])OCC[N+](C)(C)C	Trypanosoma cruzi	reporter mRNA translation, inhibitor, refers to: capped polyadenylated Renilla luciferase mRNA	cell-free extract	concentration not given	baseline: control RNA	relative translation	127%
